Assay results collected from several papers.
Each numbered part is a random draw from the data of one study; scales do not carry over between parts. Positions count from the first letter of the parent shown.

Study 1 — method: RNA Bind-n-Seq; form: RNA; matrix: in vitro; tested at: 365 nM; baseline: no-protein control; reading: higher = stronger binding
Target: RNA binding protein fox-1 homolog 2, RRM domain, GST-SBP tag (RBFOX2, Homo sapiens, UniProt O43251-10, residues 100-194)
Notes: natural RNA segment, single round, ends assumed
Constant ends, left off below: GGGAGUUCUACAGUCCGACGAUC … UGGAAUUCUCGGGUGCCAA
Target sequence (chain): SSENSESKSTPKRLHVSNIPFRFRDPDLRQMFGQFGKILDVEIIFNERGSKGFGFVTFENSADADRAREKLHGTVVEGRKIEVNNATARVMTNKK
Strand	RBNS enrichment (R)
UGACACCCUGCGUCCCUGUGUGCAUUAAGUUCAUUCUGGGUCGCAGCCAUGAAGUGUCACCAGUAUCUACUACUGUGAAGUCAGCUGUGCUGUUUUCCAUUCGCUUCCAC	0.183
CUAGGCUAUGGGACAAUCAUCCCAUUCACCACUUGACAUCCUUGACAUCCUUGACUUUCAUUCCCCCAACCUCCAGCAGGUUGGCCCCAAUCCUCUUCACCUCUGUGUUU	0.429
ACAUUUUCAAGGGAUAAGGCCUUCUGUACUUUGCUUAUUUGAAGAAUCAGUGGUAGGAGCAGUGAAGUAAAUUCUAUGGAGUACAUUUCUAAAAUACCACAUUUCUGAAA	0.352
UGAAUGGUUUUCCCAGUUCCCACUCCACAUGGGGAAGUUGAAUGAAUGCACACCUGCUGCUCACUUCUUGUGAGGCUGCCUUUUGUGAUCAAAUAACAGGAAGUUCUGCU	0.482
CUGCUCAUGACCCCUGAGCAGCCUGCAAUGAGGUGUGUGUGCCCAGCCACUUGGCUGGGCAGGGAGAUAGAUAGCUUCUUCCUGCAAGCUUCCAGAAGCACGCUGUGUUC	0.801
UAGCAUCUGUGUGUAUUAAUUCUGAAGAAUUAAAUGUUUAAAUUAGAGUUUAAAUGUUGACGGCGUUUGCUAUGUAUAAUUGCCCCUACACCGUUAUAAAGUGUUUUCAG	0.397
CUGUGUUUUCAAGGUAAAUGGUCACUCUACAUUUAUAAACACAGGUCUGAUUGUACUUGAGGUAUAAGAAAAUCUAUGAGGAAACAAGAUUUCCCUAUAACCCUAUAAUU	0.39
AAAAAAACAGUAGUGUUAAAAAUCUUUGUUGUGGUUUGAGCAUCUUUGCUGCUUUUGGAUUGAGAUGGCGAAUCAAGGCUUCACUUCCUCUCUCUUCUGUCUUUAGAAAG	0.367

Study 2 — target: CCNE2, cyclin fold, Cln2 fusion (human); method: yeast growth competition, sequencing; matrix: yeast; notes: weak parent motif; baseline: not given; reading: higher = stronger binding
Parent: SAMHD1 docking peptide (human); ASKSRVQLFKDDP
Variant	normalised enrichment score
ASKSRVQLFKFDP [D11F]	0.234
ASKSRVQLFIDDP [K10I]	-0.0473
ASSSRVQLFKDDP [K3S]	-0.239
ASKSVVQLFKDDP [R5V]	0.0419
ASKIRVQLFKDDP [S4I]	0.803
ASKTRVQLFKDDP [S4T]	0.217
ASKCRVQLFKDDP [S4C]	1.25
ASKSRVPLFKDDP [Q7P]	-0.00992
AGKSRVQLFKDDP [S2G]	0.125
ASKSRVQLFRDDP [K10R]	0.224
ASKQRVQLFKDDP [S4Q]	0.0823
ASKSRVQLLKDDP [F9L]	0.39
ASKDRVQLFKDDP [S4D]	0.000539
ASKSRVDLFKDDP [Q7D]	-0.124
ASKSRIQLFKDDP [V6I]	-0.402
ASKSRVQLEKDDP [F9E]	0.134
ASKSRVQVFKDDP [L8V]	0.00364
ASKSSVQLFKDDP [R5S]	-0.2
ASKSRVQLFLDDP [K10L]	0.459
ASKSRVQYFKDDP [L8Y]	0.353
ASKSRVQLGKDDP [F9G]	-0.0508

Study 3 — method: DHFR PCA, dose-response; matrix: yeast; notes: Hill fit, mean, not affinity; with: (+)-ABA, dose series; reading: lower = more sensitive
Target: ABI1, truncated, D143A, DHFR fusion (Arabidopsis thaliana, UniProt P49597)
Parent: PYL1, truncated, DHFR fusion (Arabidopsis thaliana, UniProt Q8VZS8); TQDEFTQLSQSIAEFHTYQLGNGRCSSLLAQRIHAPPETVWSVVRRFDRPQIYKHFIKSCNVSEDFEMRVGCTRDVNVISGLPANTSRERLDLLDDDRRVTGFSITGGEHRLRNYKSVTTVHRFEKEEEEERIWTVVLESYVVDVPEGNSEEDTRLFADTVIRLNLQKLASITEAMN
Variant	ABA EC50 [µM]
E152V	5.64
R113L	7.96
T160V	23.2
K58W	45.8
E147G	8.33
E64F	5.74
L8G	137
N61L	2.91
V40C	79.4
E152D	1.73
E147D	3.6
W134S	1.34
R45M	286
T106E	9.02
Y18T	10.7
C25S	18.9
P37L	21.1
T6N	6.01
N165A	536
V121L	8.29
E125T	1.98

Study 4 — method: competition protein-binding microarray; form: double-stranded DNA, one strand shown; matrix: in vitro; tested at: 2 µM; with: Pho4 competitor, 0.05 µM; reading: higher = stronger binding; constant ends, left off below: … GTCTTGATTCGCTTGACGCTGCTG
Target: Centromere-binding protein 1, full length, His-tagged (CBF1, Saccharomyces cerevisiae, UniProt P17106, residues 1-351)
UniProt P17106, sequence (whole entry, looked up): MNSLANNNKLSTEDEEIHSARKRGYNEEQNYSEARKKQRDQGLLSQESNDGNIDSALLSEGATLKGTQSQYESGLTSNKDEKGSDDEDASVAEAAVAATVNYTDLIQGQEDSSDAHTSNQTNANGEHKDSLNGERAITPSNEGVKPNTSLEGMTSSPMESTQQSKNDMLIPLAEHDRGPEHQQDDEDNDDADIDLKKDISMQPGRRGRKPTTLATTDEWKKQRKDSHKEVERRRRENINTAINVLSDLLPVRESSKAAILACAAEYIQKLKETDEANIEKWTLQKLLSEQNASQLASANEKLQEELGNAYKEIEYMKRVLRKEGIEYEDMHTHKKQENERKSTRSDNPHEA
Notes: whole 60-bp probe, lowest competitor level
Strand	fluorescence intensity [a.u.]
CGGGGTTAAGTTTGTCACTAGACTTGCTTGCAGCAG	76.7
GCCCTCAAAAAACACAACGTGCGGATAACGACAACG	138
CTAACGAAGGTTTGTTAGGTGGGTGACAAGCCAAGT	63
GTCCTGGAAGCCTGACGCGTGCGATCTTCTCCTCCC	81.7
AAATTACTAAGTTGATCTGTGGGTGACGCCGTATGA	76
AAGCTAAAGCAGAGGAACGTGACGGACGCGCATTAA	264
AATCGTTGGCACCATCACGGGATTTTGACGAGGGGA	315
CGTCCTAGTGATTTTCACGTGACCTCCATGAGGAAG	8740
AAAGCGGTAATTTGTTCTGTGGGTGCAGATATCTAT	62.3
CTAACGAAGGTTTGTCACCGAACTTACAAGCCAAGT	68
CTTTCCCGATCTTGACCAGTGGGTGTAGCACATTTG	79
AAAGCGGTAATTTGTCACAACACTTCACATATCTAT	105
CTTTCCCGATCTTGTCACCAGACTTTAGCACATTTG	94.1
AAATTACTAAGTTGTTCGGTGGGTGACGCCGTATGA	53.2
AAATTACTAAGTTGGCCTGTGGGTGACGCCGTATGA	63.7
TGCGCAACAACTTGTCTCGTGGGTGTATGTCTAGAA	91.8
GTACACACAAGGCGTCACATGAATTCTTGCCAAGTT	324
